Experimental data of several laboratories.
Compare with care: the assays were run in different laboratories. ± marks the error that the study gave.

| Compound | tested on | test | conditions | how to read | endpoint | result |
| --- | --- | --- | --- | --- | --- | --- |
| O=C(C[Se]C(=O)c1cc2ccccc2o1)Nc1cccc(C(F)(F)F)c1 | NCI60 colon subpanel | NCI60 five-dose screen | – | – | GI50 | 2.62 µM |
| CNS(=O)(=O)Nc1nccc(Cc2c(C)c3ccc(Oc4ncccc4F)cc3oc2=O)c1F | HMVII | cell viability, CellTiter-Glo | 7 days | – | IC50 | 2.54 nM |
| C=CC(=O)N1CCC[C@@H](n2nc(-c3ccc(Oc4ccccc4)cc3)c3c(N)ncnc32)C1 | TMD8 | cell growth or viability, WST-1 | 72 h | – | GI50 | 0.0029 µM |
| COc1ncccc1CN(C(=O)OC(c1ccc([N+](=O)[O-])cc1)C(F)(F)F)[C@H]1C[C@@H]1c1ccccc1 (mixture of isomers) | THP-1 cells expressing NTR | MTS | 72 h | – | GI50 | > 50 µM |
| O=C(C[Se]C(=O)C12CC3CC(CC(C3)C1)C2)Nc1cccc(C(F)(F)F)c1 | NCI60 colon subpanel | NCI60 five-dose screen | – | – | GI50 | 13.5 µM |
| Cc1ncsc1-c1ccc(C(C)NC(=O)C2CC(O)CN2C(=O)C(NC(=O)CCCCCCCCCCN2CCCC(Nc3ncc(Cl)c(Nc4ccccc4S(=O)(=O)C(C)C)n3)C2)C(C)(C)C)cc1 (stereo not shown) | 22Rv1 | RNA-seq, measured: PKNOX2 mRNA | concentration not given | reference: DMSO | log2 fold change | -2.05 |
| COC1CN([C@H]2CC[C@H]([C@@]3(C)Oc4c(Cl)cc(C(=O)NCc5c(SC)cc(C)[nH]c5=O)c(C)c4O3)CC2)C1 | T24 | cell growth or viability, ATP luminescence | 6 days | – | GI50 | > 10 µM |
| COc1ncccc1CN(C(=O)OCc1ccc([N+](=O)[O-])cc1F)[C@H]1[C@@H](C)[C@@H]1c1ccccc1 (racemic) | THP-1 cells expressing NTR | MTS | 72 h | – | GI50 | 4.2 ± 0.5 µM |
| CCN(C(=O)c1cc(F)ccc1Oc1nncnc1N1CCC2(C1)CN([C@H](CCCN(C)CCOC)C(C)C)C2)C(C)C | Calu-6 | cell growth or viability | 7 days | – | GI50 | > 10 µM |
| Nc1ncc(-c2cc(-c3cnn(CC(F)(F)F)c3)ncc2F)nc1C(=O)NC1CNCC(F)C1 (stereo not shown) | GSK3A | KINOMEscan | 1 µM | reference: DMSO control | remaining binding | 67% |
| C=CC(=O)Nc1cccc(Cn2ncc3cnc(Nc4cnn(CCOC)c4)nc32)c1 | LRRK2 human | binding, KINOMEscan | 100 nM | lower = stronger binding | percent of control | 64% |
| COc1ncccc1CN(C(=O)OCc1ccc([N+](=O)[O-])cc1)[C@H]1C[C@@H]1c1ccccc1 (racemic) | THP-1 cells expressing NTR | MTS | 72 h | – | GI50 | > 50 µM |
| O=C(C[Se]C(=O)c1cc2ccccc2s1)Nc1cccc(C(F)(F)F)c1 | NCI60 colon subpanel | NCI60 five-dose screen | – | – | GI50 | 2.37 µM |

Excerpt of the above:
| Compound | tested on | test | conditions | how to read | endpoint | result |
| --- | --- | --- | --- | --- | --- | --- |
| COC1CN([C@H]2CC[C@H]([C@@]3(C)Oc4c(Cl)cc(C(=O)NCc5c(SC)cc(C)[nH]c5=O)c(C)c4O3)CC2)C1 | T24 | cell growth or viability, ATP luminescence | 6 days | – | GI50 | > 10 µM |
| COc1ncccc1CN(C(=O)OCc1ccc([N+](=O)[O-])cc1F)[C@H]1[C@@H](C)[C@@H]1c1ccccc1 (racemic) | THP-1 cells expressing NTR | MTS | 72 h | – | GI50 | 4.2 ± 0.5 µM |
